Published values gathered from unrelated publications.
Protocols differ between the studies behind these lines. Numbers after ± are the reported error.
Cell line: MCF7

`COc1ccc(CNC[C@@](O)(COCc2ccc(OC)cc2)[C@@H]2CC[C@@H](C)C[C@H]2OCc2ccc(OC)cc2)cc1` has an IC50 of 1.6 µM (cell growth or viability, MTT; 72 h).
`CCCCCCCCC=CCCCCCCCCn1c(-c2cccnc2)nc(-c2ccc(C)cc2)c1-c1ccc(C)cc1` gave an IC50 of > 100 µM (cell growth or viability, SRB; 24 h).
The IC50 of `COc1c(O)cc2oc3cc(O)c(CC=C(C)C)c(O)c3c(=O)c2c1CC=C(C)C` is reported as 10.8 µM (cell growth or viability; 48 h).
The IC50 of `CNC(=O)c1c(C)oc2cc(Oc3ncnc4cc(OC)c(OCCCCCCC(=O)NO)cc34)ccc12` is reported as 17.9 µM (cell growth or viability, CCK-8; 48 h).
The IC50 of `CSc1nc(Nc2cccc(/C(C)=N/NC(=O)c3ccccc3O)c2)c(C#N)c(-c2ccccc2)n1` is reported as 30.1 µM (cell growth or viability, MTT; 48 h).
The IC50 of `O=[C]=[Re-2]1(=[C]=O)(=[C]=O)([O]S(=O)(=O)c2cccc3ccccc23)[n+]2ccc(-c3ccccc3)c3ccc4c(-c5ccccc5)cc[n+]1c4c32` is reported as 1.7 µM (cell growth or viability, resazurin; 72 h).
For `CCCCCCCCCCCCCCCOC(=O)/C=C/c1ccc(O)c(O)c1`, the IC50 was 1.3 ± 0.1 µg/mL (cell viability, MTT; 48 h, serum-free medium).
`C[C@H]1CCCC[C@@H]1NC(=O)/C(C#N)=C/c1cn(-c2ccccc2)nc1-c1cccs1` has an IC50 of 97.6 µM (cell growth or viability, MTT; 24 h).
`O=C(c1ccc2ccccc2c1)c1cn(-c2ccccc2)nc1C1=Nn2c(CCCCc3nnc4n3N=C(c3nn(-c5ccccc5)cc3C(=O)c3ccc5ccccc5c3)CS4)nnc2SC1` has an IC50 of 15.6 µM (cell growth or viability, MTT; 48 h).
For `Cn1[c]([Ir-3]234([NH3+])[n]5c6ccc5C(c5c(F)c(F)c(F)c(F)c5F)=C5C=CC(=[N+]52)C(c2c(F)c(F)c(F)c(F)c2F)=c2ccc([n]23)=C(c2c(F)c(F)c(F)c(F)c2F)C2=[N+]4C(=C6c3c(F)c(F)c(F)c(F)c3F)C=C2)[n+](C)c2ccccc21.F[P-](F)(F)(F)(F)F`, the IC50 was 0.71 µM (cell growth or viability, MTT; 72 h).
`COc1c(O)cc2oc3cc4c(c(O)c3c(=O)c2c1CCC(C)C)CC(O)O4` (stereo not shown) gave an IC50 of 18 µM (cell growth or viability; 48 h).
With `CCCC(CCC)C(=O)[O][Pt]1([OH])[O]C(=O)C(=O)[O]1.NC1CCCCC1N` the IC50 was 31.6 ± 2.1 µM (cytotoxicity; 72 h).
With `CSc1nc(Nc2ccc(C(=O)N/N=C/c3ccccc3Cl)cc2)c(C#N)c(-c2ccccc2)n1` the IC50 was 28.7 µM (cell growth or viability, MTT; 48 h).
`CC(=O)O[C@H]1CC[C@]2(C)[C@H]3CC=C4[C@@H]5CC(C)(C)CC[C@]5(CO)CC[C@@]4(C)[C@]3(C)CC[C@H]2C1(C)C` has an IC50 of 86.6 µM (cell growth or viability, SRB).
The IC50 of `O=C(CCc1nc2cc(Cl)ccc2[nH]c1=O)Nc1ccc(F)cc1` is reported as 80.4 µM (cell growth or viability, MTT).
For `C=C1[C@@H]2[C@H]3OC(=O)/C(=C/c4ccccc4)[C@@H]3CCC(=C)[C@@H]2C[C@@H]1OC(C)=O`, the IC50 was 37 µM (cell growth or viability, MTT; 48 h).
For `COc1ccc2cc3[n+](cc2c1OCc1cn(Cc2c(Cl)cc(Cl)cc2Cl)nn1)CCc1cc2c(cc1-3)OCO2`, the IC50 was 12.6 µM (cell growth or viability, MTT).
With `NS(=O)(=O)c1ccc(/N=N/c2ccc(O)c(/C=N/c3nccs3)c2)cc1` the IC50 was 9.22 µM (cell growth or viability, MTT; 48 h).
`CC/C(=C(\c1ccccc1)c1ccc(OCCN(C)CCCCCC(=O)NCCc2c[nH]c3ccc(OC)cc23)cc1)c1ccccc1` has an IC50 of 4.6 µM (cell survival, MTT; day 9, dosed days 2, 4, 7).
For `CN(C)CCO/N=C1/C=C2CCC3C(CC[C@]4(C)/C(=C/c5ccccn5)CCC34)[C@@]2(C)CC1` (stereo partly shown), the IC50 was > 100 µM (cell growth or viability, MTT; 72 h).
`COc1cccc2c1C(=O)c1c(O)c3c(c(O)c1C2=O)CC(O)(C(=O)CO)CC3OC1CC(NC(=O)C[C@H](N)C(=O)O)C(O)C(C)O1` (stereo partly shown) gave an IC50 of 17.5 µg/mL (cell growth or viability, MTT; 48 h).
For `[Cl][Pd-2]1([Cl])[N+](=P(c2ccccc2)(c2ccccc2)c2ccccc2)Cc2cccc[n+]21`, the IC50 was 25 µM (cell growth or viability, MTT; 74 h).
With `COc1cccc(CNC[C@@](O)(COCc2ccccc2)[C@@H]2CC[C@@H](C)C[C@H]2OCc2ccccc2)c1` the IC50 was 1.5 µM (cell growth or viability, MTT; 72 h).
For `COc1ccc(-c2noc(NC(=O)c3cccc(C(F)(F)F)c3)c2C#N)c(OC)c1`, the IC50 was ≥ 100 µM (cell growth or viability, MTT; 72 h).
The IC50 of `Cc1cc(/C=C/c2ccc(O)c(O)c2)[nH]n1` is reported as > 100 µM (cell growth or viability, MTT; 48 h).
For `CCCCCCCCCCCCCCCCCCOc1c(O)cc(C(=O)O[C@@H]2Cc3c(O)cc(O)cc3O[C@@H]2c2cc(O)c(O)c(O)c2)cc1O`, the IC50 was 134 µM (cell growth or viability, CCK-8; 24 h).
For `C=CC(OC(C)=O)c1cc(OC)cc(OC)c1` (stereo not shown), the IC50 was > 50 µM (MTT; 24 h).
`O=C(NCCNc1n[n+]([O-])c2ccccc2[n+]1[O-])C(F)(F)F` has an IC50 of 50 ± 5.2 µM (cytotoxicity, MTT; 24 h, normoxia).
The IC50 of `C/C(=N\N=C(SCc1ccccc1)SCc1ccccc1)c1ccc(S(=O)(=O)N2CCC(C)CC2)cc1` is reported as > 30 µM (cell growth, MTT).
With `N=C(N)NCCC[C@@H](N)C(=O)N[C@@H](CC(=O)N[C@H](Cc1ccccc1)C(N)=O)c1ccc2ccccc2c1` the IC50 was 0.266 µM (cell growth or viability, ATP luminescence; 72 h).
With `CCCCCCCCn1c(-c2cccnc2)nc(-c2ccccc2)c1-c1ccccc1` the IC50 was > 100 µM (cell growth or viability, SRB; 48 h).
For `CCC(C(=O)O)C1CCC(C)C(C(C)C(O)C(C)C(=O)C(CC)C2OC3(C=CC(NCc4cn(CCOCCOCCOC)nn4)C4(CCC(C)(C5CCC(O)(CC)C(C)O5)O4)O3)C(C)CC2C)O1` (stereo not shown), the IC50 was > 12.5 µM (cell growth or viability, resazurin; 72 h).
`Cc1cc(-c2ccccc2)c2ccc3c(-c4ccccc4)cc(C)[n+]4c3c2[n+]1[Re-2]4(=[C]=O)(=[C]=O)(=[C]=O)[O]C(=O)c1ccccn1` gave an IC50 of 1.65 µM (cell growth or viability, resazurin; 72 h).
With `N#Cc1cc(C(=O)c2ccc3ccccc3c2O)c[nH]c1=O` the IC50 was 9.6 µM (cell growth or viability, MTT; 48 h).
The IC50 of `CCN1CCC2(CC1)C/C(=N\NC(=O)Nc1ccc([N+](=O)[O-])cc1)c1ccccc1O2` is reported as 56.8 µM (cell growth or viability, MTT; 48 h).
`CCOc1cccc(/C=N/Cc2ccccn2)c1O` has an IC50 of 79.6 µM (cell growth or viability, MTT; 48 h).
With `CC1=NN(C(N)=S)C(c2ccccc2)C1` (stereo not shown) the IC50 was 5.8 µM (cell growth or viability, LDH; 48 h).
For `O=[N+]([O-])[O-].[NH3+][Pt-2]1([NH3+])[O]C(c2ccccc2)=CC(c2ccccc2)=[O+]1` (stereo not shown), the IC50 was 3.1 µM (cell growth or viability, MTT).
For `Cc1c(C)n(-c2c(C(C)C)cccc2C(C)C)c(=[Se])n1-c1c(C(C)C)cccc1C(C)C.[Cl][Au]`, the IC50 was 3.5 µM (cell growth or viability, MTT; 72 h).
`C[C@@H]1O[C@@H](OC(=O)/C=C/c2ccc(O)cc2)[C@H](OC(=O)/C=C/c2ccc(O)cc2)[C@H](O)[C@H]1O` has an IC50 of 4.95 µM (cell growth or viability, MTT; 48 h, serum-free).
`COc1cc(OC)c(-c2coc3c4c(c(OC)cc3c2=O)OC(C)(C)C=C4)cc1OC` gave an IC50 of 14.4 µM (cell growth or viability, MTT; 72 h).
`CC(C)(C)c1cc2c(O)c(c1)Cc1cc(C(C)(C)C)cc(c1OCC(=O)NCc1ccccn1)Cc1cc(C(C)(C)C)cc(c1O)Cc1cc(C(C)(C)C)cc(c1OCC(=O)NCc1ccccn1)COC2` gave an IC50 of 5.4 µM (cell growth or viability, MTT; 72 h).
The IC50 of `C=C(C)[C@H]1CC[C@@]2(C)CC[C@]3(C)C[C@H]4[C@@H](C)[C@H](O)C[C@H]4/C(C)=C\C[C@H]3[C@H]12` is reported as 8 µM (cell growth or viability, MTT; 72 h).
With `COc1cccc2c1C(=O)c1c(O)c3c(c(O)c1C2=O)CC(O)(C(=O)CO)CC3OC1CC(NC(=O)CCC2=C(C)C(=O)C=C(C(C)C)C2=O)C(O)C(C)O1` (stereo not shown) the IC50 was ~2 µM (cell growth or viability, MTT; 72 h).
For `COc1ccc2cc3[n+](cc2c1OCc1cn(Cc2cccc(Br)c2)nn1)CCc1cc2c(cc1-3)OCO2`, the IC50 was 66.4 µM (cell growth or viability, MTT).
The IC50 of `C/C(=N\NC(N)=S)c1c(O)c2ccccc2oc1=O` is reported as 8.1 µM (cell growth or viability, MTT; 48 h).
`Cc1c(C)c(C)c(C[n+]2cn(CC(C)(C)c3ccccc3)c3ccccc32)c(C)c1C` has an IC50 of 28 µM (cell growth or viability, MTT; 48 h).
The IC50 of `Cc1cc(N2CCN(C(=O)CN3CCN(c4ccccc4)CC3)CC2)n2ncnc2n1` is reported as 6.93 µM (cell growth or viability, MTT).
`CCCCn1cc(C(=O)O)c(=O)c2cc(F)c(Nc3ccc(OC)cc3)c([N+](=O)[O-])c21` gave an IC50 of 8.1 µg/mL (cell growth or viability, SRB; 72 h).
`N#C[CH2][Pd]1[O]c2ccc(Br)cc2C=Nc2cccnc2[N]1Cc1ccccc1` has an IC50 of 24.4 µM (cell growth or viability, MTT; 48 h).
For `CCOC(=O)c1nn(-c2ccccc2)c2nc3nc(-c4ccccc4)cc(-c4ccc5ccccc5n4)c3c(=O)n12`, the IC50 was 13.5 µM (cell growth or viability, MTT; 48 h).
With `CC(=O)O[C@@H]1C[C@H]2C(C)(C)[C@H](O)CC[C@]2(C)[C@H]2CC[C@@]3(C)C(=CC[C@H]3[C@@H](C)C[C@@H](O)[C@H](O)C(C)(C)O)[C@@]21C` the IC50 was 13.3 µM (cell growth or viability, MTT).
`Cc1c(C)c(C)[c-](C)c1C.O=[N+]([O-])c1ccnc(-c2[c-]cccc2)c1.[Cl-].[Ir+3]` gave an IC50 of 11.4 ± 0.4 µM (SRB; 24 h, 72 h recovery).
With `COc1ccc(/C(=C(/CCn2cc(CN3C(=O)C4(OCCO4)c4cc(F)ccc43)nn2)c2ccccc2)c2ccccc2)cc1` the IC50 was > 100 µM (cell growth or viability, MTT).
`CCCCCCCCCCCCn1c(-c2cccnc2)nc(-c2ccc(C)cc2)c1-c1ccc(C)cc1` gave an IC50 of > 100 µM (cell growth or viability, SRB; 48 h).

Excerpt of the above:
For `CCCCCCCCCCCCCCCOC(=O)/C=C/c1ccc(O)c(O)c1`, the IC50 was 1.3 ± 0.1 µg/mL (cell viability, MTT; 48 h, serum-free medium).
`C[C@H]1CCCC[C@@H]1NC(=O)/C(C#N)=C/c1cn(-c2ccccc2)nc1-c1cccs1` has an IC50 of 97.6 µM (cell growth or viability, MTT; 24 h).
`O=C(c1ccc2ccccc2c1)c1cn(-c2ccccc2)nc1C1=Nn2c(CCCCc3nnc4n3N=C(c3nn(-c5ccccc5)cc3C(=O)c3ccc5ccccc5c3)CS4)nnc2SC1` has an IC50 of 15.6 µM (cell growth or viability, MTT; 48 h).
For `Cn1[c]([Ir-3]234([NH3+])[n]5c6ccc5C(c5c(F)c(F)c(F)c(F)c5F)=C5C=CC(=[N+]52)C(c2c(F)c(F)c(F)c(F)c2F)=c2ccc([n]23)=C(c2c(F)c(F)c(F)c(F)c2F)C2=[N+]4C(=C6c3c(F)c(F)c(F)c(F)c3F)C=C2)[n+](C)c2ccccc21.F[P-](F)(F)(F)(F)F`, the IC50 was 0.71 µM (cell growth or viability, MTT; 72 h).
`COc1c(O)cc2oc3cc4c(c(O)c3c(=O)c2c1CCC(C)C)CC(O)O4` (stereo not shown) gave an IC50 of 18 µM (cell growth or viability; 48 h).
With `CCCC(CCC)C(=O)[O][Pt]1([OH])[O]C(=O)C(=O)[O]1.NC1CCCCC1N` the IC50 was 31.6 ± 2.1 µM (cytotoxicity; 72 h).
